Assay results pooled from the literature.
Compare with care: the assays were run in different laboratories.
Target: Serine/threonine-protein kinase DCLK1 (DCLK1, Homo sapiens, UniProt O15075)

| SMILES | assay | conditions | how to read | endpoint | result |
| --- | --- | --- | --- | --- | --- |
| C=CC(=O)N1CCCC(n2c(=O)c3ncccc3n(Cc3ccc(Oc4ccccc4)cc3)c2=O)C1 (stereo not shown) | cell-free assay, competition with immobilised ligand | 1 µM |  | remaining binding | 71% |
| CNS(=O)(=O)Nc1nccc(Cc2c(C)c3ccc(Oc4ncccc4F)cc3oc2=O)c1F | binding, competition with immobilised ligand | 10 µM |  | remaining binding | 78% |
| NC(=O)C[C@H]1CCc2sc3ncnc(O[C@H]4CC[C@H](N5CCOCC5)CC4)c3c21 | enzyme activity, inhibitor | 10 µM |  | inhibition | 1% |
| CC(=O)N1c2ccc(-c3ccc(CNC(=O)c4cn5cc(-c6cnc(N)nc6)nc(N6CCOCC6)c5n4)cc3)cc2CC[C@@H]1C | KINOMEscan | 10 µM |  | remaining binding | 100% |
| CN1CCN(Cc2ccc(NC(=O)c3cccc(C#Cc4cnc(N)c5ncccc45)c3)cc2C(F)(F)F)CC1 | cell-free assay, competition with immobilised ligand | 50 nM |  | remaining binding | 63% |
| COc1ccc(NC(=O)Nc2ccc3c(c2)C(=O)N(C(C)CO)CC(C)C(CN(C)Cc2ccc4c(c2)OCO4)O3)cc1 (stereo not shown) | binding, competition with immobilised ligand | 10 µM |  | remaining binding | 37% |
| COc1cc(Nc2nc(C)cc(-c3cnn4nc(OC)ccc34)n2)cc(C(F)(F)F)c1 | inhibitor | 1 µM, DCAMKL1 | reference: control | remaining activity | 69% |
| CNC1C[S+]2CC[S+]3CC[S+](C1)[Ru-4]321([N]=C=S)[n]2c3ccc(OC)cc3c3c4c(c5cc(F)c[n+]1c5c32)C(=O)NC4=O (stereo not shown) | KinomeScan | 0.1 µM | reference: untreated | remaining binding | 52% |
| Cc1cnc2nc1Nc1cccc(c1)COC/C=C/COCc1cc(ccc1OCCN1CCOCC1)N2 |  | concentration not given, gene name DCAMKL1 |  | percent of control | 95% |
| CCn1cc(C(=O)O)c(=O)c2c(N)c(F)c(NC3CCCCC3)cc21 | kinase activity | 0.1 µM, with: ATP at Km |  | inhibition | 4.3% |
| C=C1CCCCCCCCCC(CO)C1=O (stereo not shown) | cell-free assay, competition with immobilised ligand | 10 µM |  | remaining binding | 100% |
| CNC(=O)C1CCN(c2cc(C)c(F)cc2NC(=O)c2ccc(-c3cc(O)ccc3C)c(C)c2)CC1 | binding, competition with immobilised ligand | 1 µM |  | remaining binding | 97% |
| C=CC(=O)N1Cc2nc(-c3cc(-c4cc(Cl)cnc4Cl)c(F)cc3F)n(-c3ccncn3)c2C1 | cell-free assay, inhibitor | 1 µM |  | inhibition | -1.6% |

Repeated from above:
| SMILES | assay | conditions | how to read | endpoint | result |
| --- | --- | --- | --- | --- | --- |
| C=CC(=O)N1CCCC(n2c(=O)c3ncccc3n(Cc3ccc(Oc4ccccc4)cc3)c2=O)C1 (stereo not shown) | cell-free assay, competition with immobilised ligand | 1 µM |  | remaining binding | 71% |
